Measurements of several laboratories.
Compare with care: the assays were run in different laboratories. ± gives the spread as reported.

| Compound | cell line | effect on | method | time | setting | CC50 |
| --- | --- | --- | --- | --- | --- | --- |
| O=[N+]([O-])c1ccc(/C=N/N=C/c2ccc(OCc3ccccc3)cc2)o1 | MDBK | – | CCK-8 | 72 h | – | > 286 µM |
| C#CCN1CCC2(C=CC(=O)OC)C(=C(C(=O)OC)C1)Nc1ccccc12 (centres unmarked) | HePAD38 | cell growth or viability | MTS | 14 days | – | > 100 µM |
| CCOC(=O)C1NC(c2ccc[n+](C)c2)C23c4c5c6c7c8c9c(c%10c%11c2c2c4c4c%12c5c5c6c6c8c8c%13c9c9c%10c%10c%11c%11c2c2c4c4c%12c%12c5c5c6c8c6c8c%13c9c9c%10c%10c%11c2c2c4c4c%12c5c6c5c8c9c%10c2c45)C713 (centres unmarked) | DG-75 | cell growth or viability | – | 24 h | – | > 50 µM |
| C#CCN1CCC23C(=C(C(=O)OC)CC(C(=O)OC)C12)Nc1ccccc13 (centres unmarked) | HePAD38 | cell growth or viability | MTS | 14 days | – | > 100 µM |
| O=[N+]([O-])c1ccc(/C=N/N=C/c2ccc(Cl)cc2)s1 | MDBK | – | CCK-8 | 72 h | – | > 340 µM |
| O=c1ccn([C@@H]2O[C@H](CO)[C@@H](O)[C@H]2F)c(=O)[nH]1 | CAKI-1 | cell growth or viability | SRB | 11 days | – | > 250 µM |
| CCOC(=O)C(NC(=O)CN1C(=O)/C(=C/c2ccc3c(c2)OCO3)SC1=S)C(C)C (centres unmarked) | MDBK | cell growth or viability | CCK-8 | 72 h | – | > 276 µM |
| COc1cc(-c2ccc3oc(-c4ccsc4)c(C#CC4(O)CCCCC4)c3c2)cc(OC)c1OC | Huh-7.5.1 | – | – | – | – | > 100 µM |
| Cc1ccc(/C=N/N=C/c2ccc([N+](=O)[O-])s2)cc1 | MDBK | – | CCK-8 | 72 h | – | > 366 µM |
| CCCCCOC(=O)C12CCC(C)C(C)C1C1=CCC3C4(C)CCC(OC5OC(CO)C(OC6OC(C)C(O)C(O)C6O)C(O)C5OC5OC(C)C(O)C(O)C5O)C(C)(C)C4CCC3(C)C1(C)CC2 (centres unmarked) | MARC145 | cell growth or viability | MTT | 48 h | – | 81.3 µM |
| O=C(CC12CC3CC(CC(C3)C1)C2)NCCOCCOCCOCC(=O)NC1CCN(S(=O)(=O)c2cc(C(=O)Nc3cc(F)c(F)c(F)c3)ccc2F)CC1 | HePAD38 | cell growth or viability | – | – | – | 16.6 µM |
| CCOC(=O)C(CC)NC(=O)CN1C(=O)S/C(=C\c2ccc(OC)cc2)C1=O (centres unmarked) | MDBK | cell growth or viability | CCK-8 | 72 h | – | > 230 µM |
| O=C(CC12CC3CC(CC(C3)C1)C2)NC1CCN(S(=O)(=O)c2cc(C(=O)Nc3cc(F)c(F)c(F)c3)ccc2F)CC1 | HePAD38 | cell growth or viability | – | – | – | 7.7 µM |
| Nc1ncnc2c1c(Br)cn2[C@@H]1O[C@H](CO)C[C@H]1O | MRC-5 SV2 fibroblasts | – | resazurin | 72 h | 5% fetal bovine serum | 14.9 µM |
| COc1ccc(-c2oc3ccc(-c4cccnc4OC)cc3c2C#CC2(O)CCCCC2)cc1 | Huh-7.5.1 | – | – | – | – | > 100 µM |
| Nc1ccn([C@@H]2O[C@H](CO)[C@@H](O)[C@H]2F)c(=O)n1 | CAKI-1 | cell growth or viability | SRB | 11 days | – | 51 µM |
| COc1ccc(-c2oc3ccc(-c4cc(OC)c(OC)c(OC)c4)cc3c2C#CC2(O)CCCCC2)cc1 | Huh-7.5.1 | – | – | – | – | > 100 µM |
| CCCCCCC(CC=CCCCCCCCC(=O)OCCOCn1cnc2c(=O)[nH]c(N)nc21)OC(=O)CCCCC1SCC2NC(=O)NC21 (centres unmarked) | Akata | cytotoxicity | – | – | – | > 60 µM |

| Compound | cell line | effect on | method | time | setting | CC50 |
| --- | --- | --- | --- | --- | --- | --- |
| O=[N+]([O-])c1ccc(/C=N/N=C/c2ccc(O)cc2)s1 | MDBK | – | CCK-8 | 72 h | – | 9.26 ± 2.36 µM |
| OC[C@H]1O[C@@H](n2cnc3c(O)ncnc32)[C@H](F)[C@@H]1O | CAKI-1 | cell growth or viability | SRB | 11 days | – | 55 µM |
| O=C(Nc1cc(F)c(F)c(F)c1)c1ccc(F)c(S(=O)(=O)N2CCC(NC(=O)C3CCC4(CC3)CCN(C(=O)CC35CC6CC(CC(C6)C3)C5)CC4)CC2)c1 | HePAD38 | cell growth or viability | – | – | – | > 60 µM |
| CCOC(=O)C(CC)NC(=O)CN1C(=O)S/C(=C\c2ccc(C)cc2)C1=O (centres unmarked) | MDBK | cell growth or viability | CCK-8 | 72 h | – | 84.2 µM |
| C[N+](C)(C)c1ccc(C2NC(c3ccc([N+](C)(C)C)cc3)C34c5c6c7c8c9c%10c(c%11c%12c3c3c5c5c%13c6c6c7c7c9c9c%14c%10c%10c%11c%11c%12c%12c3c3c5c5c%13c%13c6c6c7c9c7c9c%14c%10c%10c%11c%11c%12c3c3c5c5c%13c6c7c6c9c%10c%11c3c56)C824)cc1 (centres unmarked) | DG-75 | cell growth or viability | – | 24 h | – | 18.3 µM |
| CCC(NC(=O)CN1C(=O)N/C(=C\c2ccc(C)cc2)C1=O)C(=O)OC (centres unmarked) | MDBK | cell growth or viability | CCK-8 | 72 h | – | 63.9 µM |
| Nc1ncnc2c1ncn2[C@@H]1O[C@H](CO)[C@@H](O)[C@H]1F | CAKI-1 | – | sulforhodamine B | 11 days | galactose medium | 43 µM |
| O=C(CC1CCN(C(=O)CC23CC4CC(CC(C4)C2)C3)CC1)NC1CCN(S(=O)(=O)c2cc(C(=O)Nc3cc(F)c(F)c(F)c3)ccc2F)CC1 | HePAD38 | cell growth or viability | – | – | – | 28.8 µM |
| C#CCN1CCc2c(n(C(=C)C(=O)OC)c3ccccc23)C(C(=O)OC)C1 (centres unmarked) | HePAD38 | cell growth or viability | MTS | 14 days | – | 12.7 µM |
| O=[N+]([O-])c1ccc(/C=N/N=C/c2ccccc2)o1 | MDBK | – | CCK-8 | 72 h | – | 11.6 ± 1.52 µM |
| O=C(CC12CC3CC(CC(C3)C1)C2)NC12CCC(C(=O)NC3CCN(S(=O)(=O)c4cc(C(=O)Nc5cc(F)c(F)c(F)c5)ccc4F)CC3)(CC1)CC2 | HePAD38 | cell growth or viability | – | – | – | 60 µM |
| COc1ccc(/C=N/N=C/c2ccc([N+](=O)[O-])o2)cc1 | MDBK | – | CCK-8 | 72 h | – | 41.1 ± 3.15 µM |
| CCOC(=O)C(C)NC(=O)CN1C(=O)S/C(=C\c2ccc(F)cc2)C1=O (centres unmarked) | MDBK | cell growth or viability | CCK-8 | 72 h | – | > 256 µM |
| O=[N+]([O-])c1ccc(/C=N/N=C/c2ccc([N+](=O)[O-])o2)cc1 | MDBK | – | CCK-8 | 72 h | – | 24.6 ± 15.8 µM |
| CC1(C)NCCC[C@]2(C)[C@H]3CC=C4[C@@H]5C[C@@](C)(CO)CC[C@]5(C)CC[C@@]4(C)[C@]3(C)CC[C@@H]12 | HFF primary foreskin fibroblasts | cell viability | CellTiter-Glo | – | – | 17.6 µM |
| O=[N+]([O-])c1ccc(/C=N/N=C/c2ccc(Cl)cc2)o1 | MDBK | – | CCK-8 | 72 h | – | > 360 µM |
| O=C(Nc1cc(F)c(F)c(F)c1)c1ccc(F)c(S(=O)(=O)N2CCC(NC(=O)C3CN(C(=O)CC45CC6CC(CC(C6)C4)C5)C3)CC2)c1 | HePAD38 | cell growth or viability | – | – | – | 60 µM |

Excerpt of the above:
| Compound | cell line | effect on | method | time | setting | CC50 |
| --- | --- | --- | --- | --- | --- | --- |
| Cc1ccc(/C=N/N=C/c2ccc([N+](=O)[O-])s2)cc1 | MDBK | – | CCK-8 | 72 h | – | > 366 µM |
| CCCCCOC(=O)C12CCC(C)C(C)C1C1=CCC3C4(C)CCC(OC5OC(CO)C(OC6OC(C)C(O)C(O)C6O)C(O)C5OC5OC(C)C(O)C(O)C5O)C(C)(C)C4CCC3(C)C1(C)CC2 (centres unmarked) | MARC145 | cell growth or viability | MTT | 48 h | – | 81.3 µM |
| O=C(CC12CC3CC(CC(C3)C1)C2)NCCOCCOCCOCC(=O)NC1CCN(S(=O)(=O)c2cc(C(=O)Nc3cc(F)c(F)c(F)c3)ccc2F)CC1 | HePAD38 | cell growth or viability | – | – | – | 16.6 µM |
| CCOC(=O)C(CC)NC(=O)CN1C(=O)S/C(=C\c2ccc(OC)cc2)C1=O (centres unmarked) | MDBK | cell growth or viability | CCK-8 | 72 h | – | > 230 µM |
| O=C(CC12CC3CC(CC(C3)C1)C2)NC1CCN(S(=O)(=O)c2cc(C(=O)Nc3cc(F)c(F)c(F)c3)ccc2F)CC1 | HePAD38 | cell growth or viability | – | – | – | 7.7 µM |
